Measured values collected from several papers.
Lines come from different studies, so protocols differ. Numbers after ± are the reported error.
Sequence of UniProt Q7Z7M1 (whole entry, looked up): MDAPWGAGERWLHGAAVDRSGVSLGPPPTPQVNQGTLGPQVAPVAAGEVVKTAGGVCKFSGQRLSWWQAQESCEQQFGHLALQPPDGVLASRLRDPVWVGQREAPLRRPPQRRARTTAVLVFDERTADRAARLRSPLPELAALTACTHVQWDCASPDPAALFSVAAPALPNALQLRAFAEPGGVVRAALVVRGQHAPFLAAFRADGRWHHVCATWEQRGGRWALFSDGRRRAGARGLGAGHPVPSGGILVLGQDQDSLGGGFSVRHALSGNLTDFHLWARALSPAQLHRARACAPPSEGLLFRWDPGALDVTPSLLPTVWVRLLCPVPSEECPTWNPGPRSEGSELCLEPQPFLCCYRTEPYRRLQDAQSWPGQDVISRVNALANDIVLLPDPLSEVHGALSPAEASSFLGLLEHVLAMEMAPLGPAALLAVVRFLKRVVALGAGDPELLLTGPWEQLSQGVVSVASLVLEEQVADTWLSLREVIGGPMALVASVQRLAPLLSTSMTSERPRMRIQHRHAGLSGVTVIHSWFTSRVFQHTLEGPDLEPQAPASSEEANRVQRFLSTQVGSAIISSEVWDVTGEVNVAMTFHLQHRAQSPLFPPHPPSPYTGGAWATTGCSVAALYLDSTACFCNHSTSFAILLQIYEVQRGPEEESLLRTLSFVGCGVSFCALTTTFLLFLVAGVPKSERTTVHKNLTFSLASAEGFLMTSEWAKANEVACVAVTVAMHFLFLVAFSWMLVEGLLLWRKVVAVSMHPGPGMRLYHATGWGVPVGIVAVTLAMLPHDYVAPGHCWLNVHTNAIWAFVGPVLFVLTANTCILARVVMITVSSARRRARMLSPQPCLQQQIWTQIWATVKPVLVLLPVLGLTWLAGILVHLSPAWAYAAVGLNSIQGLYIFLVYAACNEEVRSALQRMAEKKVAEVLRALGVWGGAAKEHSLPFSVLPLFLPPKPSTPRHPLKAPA

Compound = CC[C@H](C)[C@H](NC(=O)[C@H](Cc1ccccc1)NC(=O)[C@H](CCC(=O)O)NC(=O)[C@H](CCCNC(=N)N)NC(=O)[C@H](C)NC(=O)[C@H](C)NC(=O)[C@H](CCC(N)=O)NC(=O)[C@H](CCC(=O)O)NC(=O)[C@H](CCC(=O)O)NC(=O)[C@H](CC(C)C)NC(=O)[C@H](Cc1ccc(O)cc1)NC(=O)[C@H](CO)NC(=O)[C@H](CO)NC(=O)[C@@H](NC(=O)[C@H](CC(=O)O)NC(=O)[C@H](CO)NC(=O)[C@@H](NC(=O)[C@H](Cc1ccccc1)NC(=O)[C@@H](NC(=O)CNC(=O)[C@H](CCC(=O)O)NC(=O)[C@H](C)NC(=O)CCc1c[nH]cn1)[C@@H](C)O)[C@@H](C)O)C(C)C)C(=O)N[C@@H](C)C(=O)N[C@@H](Cc1c[nH]c2ccccc12)C(=O)N[C@@H](CC(C)C)C(=O)N[C@H](C(=O)N[C@@H](CCCNC(=N)N)C(=O)NCC(=O)N[C@@H](CCCNC(=N)N)C(=O)N[C@@H](CCCCNC(=O)COCCOCCNC(=O)COCCOCCNC(=O)CC[C@H](NC(=O)CCCCCCCCCCCCCCCCC(=O)O)C(=O)O)C(=O)NCC(=O)NCC(=O)N[C@@H](CO)C(=O)N[C@@H](CCCCNc1c(NCCCCCN(O)C(=O)CCC(=O)NCCCCCN(O)C(=O)CCC(=O)NCCCCCN(O)C(C)=O)c(=O)c1=O)C(=O)O)C(C)C [zirconium-89 labelled]; system = rat, bone marrow; setting = iv, 3 nmol/kg, 24 h, ex vivo; measurement = tissue uptake; result = 0.99 %ID/g
Compound = O[C@H]1CCCN[C@@H]1CCCn1cnc2c(Cl)c(Cl)ccc21; system = healthy humans, plasma; setting = oral, 150 mg twice daily; measurement = CL/F at steady state; result = 2450 mL/min
Compound = CNc1cc(-c2ccnc(Nc3ccc(N4CCN(C)CC4)c(C(F)(F)F)c3)n2)ccn1; system = Danio rerio embryos; setting = 5 µM, 5 d; measurement = toxicity; result = 82 ± 19%
Compound = Cc1cccc(Cn2nc(C3CC3)c3c(NC(=O)c4cnc5cc(OCCN6CCN(C)CC6)ccn45)cccc32)n1; test = measured: Anemia; system = human advanced solid tumours; setting = oral, dose not given, all-causality,, all doses; measurement = adverse events incidence; result = 26.3%
Compound = C[C@]1(CO)Cc2ncn(-c3ccc(C#N)c(Cl)c3)c2C(=O)O1; system = healthy Japanese adults, plasma; setting = 20 mg single dose; measurement = AUC(0-inf); result = 7.11 µM·h
Compound = CC1(C)[C@H](C(=O)OCc2cccc(Oc3ccccc3)c2)[C@@H]1C=C(Cl)Cl; test = measured: CYP2C9; system = human, age 1 year, recombinant human CYP2C9; setting = 0.1 µM; measurement = enzyme contribution to clearance; result = 2.32%
Compound = CO[C@H]1C[C@@H]2CC[C@@H](C)[C@@](O)(O2)C(=O)C(=O)N2CCCC[C@H]2C(=O)O[C@H]([C@H](C)C[C@@H]2CC[C@@H](OC(=O)NCCOCCOCCOCCOCCOCCOCCOCCOCCC(=O)N3CCc4cc(Cn5nc(-c6ccc7oc(N)nc7c6)c6c(N)ncnc65)ccc4C3)[C@H](OC)C2)C[C@@H](O)[C@H](C)/C=C(\C)[C@@H](O)[C@@H](OC)C(=O)[C@H](C)C[C@H](C)/C=C/C=C/C=C/1C; system = patients with advanced solid tumours; setting = intravenous, 6 mg weekly, grade 3 or higher; measurement = anaemia incidence; result = 16.7%
Compound = COc1cc2c(cc1OC)CN(CCc1ccc(NC(=O)c3cccc4c(=O)c5cccc(OC)c5[nH]c34)cc1)CC2; system = CD-1 mouse, male, plasma; setting = intraperitoneal, 30 mg/kg; measurement = Tmax; result = 6 h
Compound = CC(C)Nc1ccnc(Nc2cccc(-c3cccnc3)c2)n1; test = measured: potassium; system = mouse, blood; setting = intraperitoneal, 5 mg/kg; measurement = blood chemistry; result = 9.69 mmol/L
Compound = O=S(=O)([O-])C(F)(F)C(F)(F)C(F)(F)C(F)(F)C(F)(F)C(F)(F)C(F)(F)C(F)(F)F.[K+]; system = male C57BL/6J mice, EtOH-fed, plasma; setting = dose not given; how to read = relative to: efavirenz and pair-fed; measurement = VLDL level; result = increased
Compound = C=CCNc1c(O)cc2c(O)c1C[C@@H](C)C[C@H](OC)[C@H](O)[C@@H](C)/C=C(\C)[C@H](OC(N)=O)[C@@H](OC)/C=C\C=C(/C)C(=O)N2; system = unresectable or metastatic STS, GIST, other; setting = intravenous, 300 mg/m^2; measurement = patients with fatigue TEAE; result = 67%
Compound = Nc1nc2cc(-c3ccc4ncc(C(=O)N5CCOCC5)n4c3)ccc2o1; test = measured: Fatigue; system = advanced solid tumour patients; setting = dose not given; measurement = patients with adverse event; result = 4%
Compound = CC(=O)c1c(C)c2cnc(Nc3ccc(C4CCN(CCS(C)(=O)=O)CC4)cn3)nc2n(C2CCCC2)c1=O; system = HR+/HER2- advanced breast cancer patients; setting = oral, dose not given, grade 3 or 4; measurement = platelet count decreased; result = 1.2%
Compound = O=C(Nc1ccccc1)C1CCN(C(=O)Oc2cccnc2)CC1; system = healthy women; setting = oral, 20 mg, 7 days; measurement = adverse event Palpitations; result = 7.1%
Compound = CC(C)(O)c1cc(Nc2cc(Oc3cn(C4CC4)nc3C3CCOCC3)ccn2)ccn1; test = Asthenia; system = advanced cancer patients, dose escalation; setting = oral, dose not given, 3 weeks on/1 off, all causality grade ≥3; measurement = treatment-emergent adverse events; result = 6%
Compound = CNC(=O)[C@@H](NC(=O)c1cc(OCC2(C)COC2)c(C2CC2)cn1)C(C)(C)C; system = C57BL/6 mice; setting = oral, 2.8 mg/kg; measurement = dose-normalised AUC(0-inf); result = 70 kg·ng·h/mL/mg
Compound = Clc1ccc(-c2ccc(Cl)cc2Cl)cc1; system = PDMS-water partitioning; setting = PCB compilation; how to read = relative to: maximum over minimum K; measurement = literature range factor; result = 4
Compound = CCN1CCN(Cc2ccc(Nc3ncc(F)c(-c4cc(F)c5nc6n(c5c4)[C@H](C)CCC6)n3)nc2)CC1; system = advanced solid tumour patients; setting = dose not given, Phase Ia monotherapy; measurement = Nausea incidence, any grade; result = 33.3%
Compound = CCN1[C@@H](C(=O)NC23CCC(C(=O)O)(CC2)CC3)[C@H](c2cccc(Cl)c2F)[C@]2(C(=O)Nc3cc(Cl)ccc32)C12CCCCC2; system = patients with advanced solid tumours; setting = oral, dose not given, all doses; measurement = grade ≥3 Thrombocytopenia incidence; result = 33.3%
Compound = Fc1ccc([C@@H]2CCNC[C@H]2COc2ccc3c(c2)OCO3)cc1; tested on = Plasmodium falciparum; system = GB4; measurement = IC50; result = 6.31 µM
Compound = COc1ccc(-c2c(-c3ccc(C#N)c(F)c3)nc(N3CCC(N)CC3)n(C)c2=O)cc1F; test = measured: Hepatic pain; system = human patients; setting = oral, 60 mg, dose expansion; measurement = serious adverse event incidence; result = 5%
Compound = O=C(O)CCCOc1ccc(F)cc1-c1cc(-c2ccccc2C(F)(F)F)n(-c2ccccc2)n1; test = measured: Lymphocytes; system = Crl:CD(SD) rats, female, blood; setting = iv, 25 µg/kg, 14 days; measurement = leukocyte differential; result = 79.1 ± 5.1%
Compound = CN1CC[C@@H](c2c(O)cc(O)c3c(=O)cc(-c4ccc(C(F)(F)F)cc4Cl)oc23)[C@@H]1CO; test = measured: Pneumonia; system = relapsed B-cell malignancies; setting = oral, 100 mg, grade 3-4, intermittent dosing; measurement = patients with adverse event; result = 0%
Compound = COc1cc2c(Oc3ccc4[nH]c(C)cc4c3F)ccnc2cc1OCC1(N)CC1; system = paediatric recurrent refractory sarcoma; setting = concentration not given, whole group; measurement = grade 3 Hypothyroidism; result = 0%
Compound = CCN(CC)[C@@H]1CCc2c(F)ccc(O)c2C1; tested on = Plasmodium falciparum; system = HB3; measurement = IC50; result = 1.26 µM
Compound = Clc1ccc(-c2cc(Cl)c(Cl)cc2Cl)cc1Cl; system = fresh water; setting = 20 °C; measurement = log K(PDMS-water); result = 6.04 ± 0.05
Compound = CCN(CC)CCCC(C)Nc1c2ccc(Cl)cc2nc2ccc(OC)cc12 (stereo not shown); system = BALB/c mouse; measurement = MTD; result = 50 mg/kg
Compound = CC(C)C[C@@H]1NC(=O)CNC(=O)[C@H](CC(N)=O)NC(=O)[C@H](CCCNC(=N)N)NC(=O)[C@H]([C@@H](C)O)NC(=O)[C@@H]2CSSC[C@@H]3NC(=O)[C@H]([C@@H](C)O)NC(=O)CNC(=O)CNC(=O)[C@H](C(C)C)NC(=O)[C@@H]4CSSC[C@H](NC(=O)[C@H]([C@@H](C)O)NC(=O)[C@H](CSSC[C@H](NC(=O)[C@H](C(C)C)NC(=O)[C@@H]5CCCN5C1=O)C(=O)N[C@@H](CCCCN)C(=O)N[C@@H](CCC(=O)O)C(=O)N[C@@H]([C@@H](C)O)C(=O)N4)NC(=O)CNC(=O)[C@@H]1CCCN1C(=O)[C@H]([C@@H](C)O)NC(=O)[C@H](CC(N)=O)NC3=O)C(=O)N[C@@H](CO)C(=O)N[C@@H](Cc1c[nH]c3ccccc13)C(=O)N1CCC[C@H]1C(=O)N[C@@H](C(C)C)C(=O)N2; test = HPLC; system = ammonium bicarbonate 0.1 M; setting = 180 µM, 14 days, pH 9.0, 37 °C, deamidation stability; measurement = remaining peptide; result = 25.1 ± 3.8%
Compound = O=C(O)C[C@H](NC(=O)[C@H](CC(=O)O)NC(=O)[C@H](CC(=O)O)NC(=O)[C@H](CC(=O)O)NC(=O)[C@H](CC(=O)O)NC(=O)[C@H](CC(=O)O)NC(=O)[C@H](CC(=O)O)NC(=O)[C@H](CC(=O)O)NC(=O)[C@H](CC(=O)O)NC(=O)[C@H](CC(=O)O)NC(=O)[C@H](CC(=O)O)NC(=O)[C@H](CCCCNC(=O)c1ccc(C(=O)NCCOCCOB2BBBBBB3BBBB3B2)cc1)NC(=O)CN1CCN(CC(=O)O)CCN(CC(=O)O)CCN(CC(=O)O)CC1)C(=O)O [gallium-67 labelled]; test = gamma counting; system = ddY mouse, male, 6 weeks old, muscle; setting = intravenous, 37 kBq, 10 min; measurement = tissue uptake; result = 1.57 %ID/g
Compound = CCN(CCO)CCCC(C)Nc1ccnc2cc(Cl)ccc12 (stereo not shown); system = newly diagnosed glioblastoma patients; setting = oral, 800 mg/dose, grade 4, added: radiotherapy and temozolomide; measurement = neutrophil decrease patients; result = 66%
Compound = Oc1ccc2c3c1O[C@H]1[C@@H](O)CC[C@@]4(O)[C@@H](C2)N(CC2CCC2)CC[C@]314; tested on = Adhesion G protein-coupled receptor D2 (ADGRD2, Homo sapiens, UniProt Q7Z7M1); test = β-arrestin recruitment, TANGO luminescence, measured: GPR144; setting = concentration not given; how to read = relative to: basal luminescence; measurement = log2 fold change; result = 1.96
Compound = C[C@H]1CN(c2n[nH]c3nc(N[C@H]4CC[C@H](NS(=O)(=O)CCC(F)(F)F)CC4)ncc23)CCO1; tested on = Putative ribosomal protein uL10-like (RPLP0P6, Homo sapiens, UniProt Q8NHW5); test = competitor, Kinobeads competition, measured: RPLP0-like; system = human cell extract; setting = 0.8 µM; how to read = relative to: vehicle; measurement = relative abundance; result = 1.17
Compound = COc1ccc(-c2cc(=O)c3c(OC)c(OC)c(OC)c(OC)c3o2)cc1OC; system = Sprague Dawley rat, plasma; setting = oral, 10 g lyophilized powder/kg, high dose; measurement = Vz/F; result = 8690 ± 5650 L/kg
Compound = C[C@@H](O)[C@@H](CO)NC(=O)[C@@H](CCCNC(=N)N)NC(=O)[C@@H]1CCCN1C(=O)[C@@H]1CSSC[C@H](NC(=O)[C@H](Cc2ccccc2)NC(=O)CN2CCN(CC(=O)O)CCN(CC(=O)O)CCN(CC(=O)O)CC2)C(=O)N[C@@H](Cc2ccc(O)cc2)C(=O)N[C@@H](Cc2ccccc2)C(=O)N[C@@H](CCC(N)=O)C(=O)N[C@@H](CC(N)=O)C(=O)N1 [gallium-68 labelled]; system = Wistar rat, adrenals; setting = intravenous, 8 MBq, 30 min, group mean; measurement = tissue uptake; result = 0.45 %ID/g

Some of these lines once more:
Compound = CC(=O)c1c(C)c2cnc(Nc3ccc(C4CCN(CCS(C)(=O)=O)CC4)cn3)nc2n(C2CCCC2)c1=O; system = HR+/HER2- advanced breast cancer patients; setting = oral, dose not given, grade 3 or 4; measurement = platelet count decreased; result = 1.2%
Compound = O=C(Nc1ccccc1)C1CCN(C(=O)Oc2cccnc2)CC1; system = healthy women; setting = oral, 20 mg, 7 days; measurement = adverse event Palpitations; result = 7.1%
Compound = CC(C)(O)c1cc(Nc2cc(Oc3cn(C4CC4)nc3C3CCOCC3)ccn2)ccn1; test = Asthenia; system = advanced cancer patients, dose escalation; setting = oral, dose not given, 3 weeks on/1 off, all causality grade ≥3; measurement = treatment-emergent adverse events; result = 6%
Compound = CNC(=O)[C@@H](NC(=O)c1cc(OCC2(C)COC2)c(C2CC2)cn1)C(C)(C)C; system = C57BL/6 mice; setting = oral, 2.8 mg/kg; measurement = dose-normalised AUC(0-inf); result = 70 kg·ng·h/mL/mg
Compound = Clc1ccc(-c2ccc(Cl)cc2Cl)cc1; system = PDMS-water partitioning; setting = PCB compilation; how to read = relative to: maximum over minimum K; measurement = literature range factor; result = 4
Compound = CCN1CCN(Cc2ccc(Nc3ncc(F)c(-c4cc(F)c5nc6n(c5c4)[C@H](C)CCC6)n3)nc2)CC1; system = advanced solid tumour patients; setting = dose not given, Phase Ia monotherapy; measurement = Nausea incidence, any grade; result = 33.3%
